Assay results gathered from unrelated publications.
Parts stem from different laboratories: compare values within a part only. Changes are numbered by the printed parent chain.
UniProt P52564, sequence (whole entry, looked up): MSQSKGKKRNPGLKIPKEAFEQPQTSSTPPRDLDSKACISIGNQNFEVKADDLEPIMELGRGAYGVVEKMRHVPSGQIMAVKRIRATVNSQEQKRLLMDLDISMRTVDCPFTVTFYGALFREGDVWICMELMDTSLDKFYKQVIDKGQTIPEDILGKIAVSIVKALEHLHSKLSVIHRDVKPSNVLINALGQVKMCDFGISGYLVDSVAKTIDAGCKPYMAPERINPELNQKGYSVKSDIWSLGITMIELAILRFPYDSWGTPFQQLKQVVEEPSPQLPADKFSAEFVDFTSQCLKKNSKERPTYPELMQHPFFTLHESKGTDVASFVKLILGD

Block 1
Target: CCNA1, cyclin fold, Cln2 fusion (human)
Technique: yeast growth competition, sequencing
Medium: yeast
Notes: weak parent motif
Reference: not given
Direction: higher = stronger binding
Parent: SCAPER docking peptide (human); SNARRSLNFGGST
| Substitution | normalised enrichment score |
| --- | --- |
| S1M | 0.613 |
| T13F | 0.587 |
| G11D | 0.839 |
| F9M | 0.622 |
| L7H | 0.384 |
| L7K | 0.549 |
| N8V | 0.308 |
| S1W | 0.542 |

Block 2
Target: Probable WRKY transcription factor 33, N-terminal DNA-binding domain (WRKY33, Arabidopsis thaliana, UniProt Q8S8P5, residues 169-264)
Technique: DNA-protein interaction ELISA
Molecule type: double-stranded DNA, one strand shown
Medium: in vitro, bacterial lysate
Tested at: not given
Notes: whole dsDNA probe, crude lysate protein
Reference: highest signal in screen
Direction: higher = stronger binding
Construct (chain): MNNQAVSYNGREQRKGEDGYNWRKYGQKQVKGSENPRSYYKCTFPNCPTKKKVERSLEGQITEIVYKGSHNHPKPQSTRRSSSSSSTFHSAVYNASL
| Strand | relative absorbance |
| --- | --- |
| AAAAAAAGGTCATTGCTGCTGGTGTTAAAA | 23.4 % of maximum |
| AAAAAATGAATCAATTTTTGGGCTTTAAAA | 31.4 % of maximum |
| AAAAAATTCGTATCTGTACCCTATGCAAAA | 22.4 % of maximum |
| AAAAAAGTCATTATAACCCAAACTCTAAAA | 33.7 % of maximum |
| AAAAAACGCTCCGTTTTTGCAATGCGAAAA | 21 % of maximum |
| AAAAAAACCCGTGCCTGCCTATTGCAAAAA | 17.3 % of maximum |
| AAAAAAGGCTCCGGCCCCCAATCGCAAAAA | 18.9 % of maximum |
| AAAAAAGCTCCCGTCTCTTAGTTCTAAAAA | 24.2 % of maximum |

Other studies, line by line
| Substance | target | test | system | setting | how to read | endpoint | value |
| --- | --- | --- | --- | --- | --- | --- | --- |
| PhoQ, residues 284 288 289 292 302 303 AGGLSV | PhoP, residues 12 14 15 18 19 LHHSG (Escherichia coli, UniProt P23836) | Sort-seq, measured: YFP reporter | E. coli | PhoQ-PhoP variant library, together with: 10 µM Mg2+ | reference: high Mg2+ state, higher = stronger signaling | fold induction | 15.1 |
| CN([C@@H]1CCc2c(CC(=O)O)c3cc(S(C)(=O)=O)ccc3n2C1)S(=O)(=O)c1ccc(F)cc1 | Dual specificity mitogen-activated protein kinase kinase 6 (MAP2K6, Homo sapiens, UniProt P52564) | cell-free assay, competition with immobilised ligand |  | 1 µM |  | remaining binding | 100% |
